Experimental data collected from several papers.
Each numbered part is a random draw from the data of one study; scales do not carry over between parts.
Chain of UniProt Q07002 (whole entry, looked up): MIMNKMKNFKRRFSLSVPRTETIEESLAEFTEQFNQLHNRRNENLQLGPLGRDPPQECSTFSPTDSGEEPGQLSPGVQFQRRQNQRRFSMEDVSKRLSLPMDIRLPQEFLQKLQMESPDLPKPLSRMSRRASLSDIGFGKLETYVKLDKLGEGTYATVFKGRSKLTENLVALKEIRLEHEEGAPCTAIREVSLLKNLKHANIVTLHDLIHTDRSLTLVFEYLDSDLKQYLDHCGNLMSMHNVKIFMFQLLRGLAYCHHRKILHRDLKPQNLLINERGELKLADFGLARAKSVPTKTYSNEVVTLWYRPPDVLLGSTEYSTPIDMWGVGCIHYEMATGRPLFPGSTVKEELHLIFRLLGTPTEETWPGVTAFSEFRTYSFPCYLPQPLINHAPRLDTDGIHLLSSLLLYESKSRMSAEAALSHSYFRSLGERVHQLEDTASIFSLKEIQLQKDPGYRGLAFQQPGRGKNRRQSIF
Chain of UniProt Q9H422 (whole entry, looked up): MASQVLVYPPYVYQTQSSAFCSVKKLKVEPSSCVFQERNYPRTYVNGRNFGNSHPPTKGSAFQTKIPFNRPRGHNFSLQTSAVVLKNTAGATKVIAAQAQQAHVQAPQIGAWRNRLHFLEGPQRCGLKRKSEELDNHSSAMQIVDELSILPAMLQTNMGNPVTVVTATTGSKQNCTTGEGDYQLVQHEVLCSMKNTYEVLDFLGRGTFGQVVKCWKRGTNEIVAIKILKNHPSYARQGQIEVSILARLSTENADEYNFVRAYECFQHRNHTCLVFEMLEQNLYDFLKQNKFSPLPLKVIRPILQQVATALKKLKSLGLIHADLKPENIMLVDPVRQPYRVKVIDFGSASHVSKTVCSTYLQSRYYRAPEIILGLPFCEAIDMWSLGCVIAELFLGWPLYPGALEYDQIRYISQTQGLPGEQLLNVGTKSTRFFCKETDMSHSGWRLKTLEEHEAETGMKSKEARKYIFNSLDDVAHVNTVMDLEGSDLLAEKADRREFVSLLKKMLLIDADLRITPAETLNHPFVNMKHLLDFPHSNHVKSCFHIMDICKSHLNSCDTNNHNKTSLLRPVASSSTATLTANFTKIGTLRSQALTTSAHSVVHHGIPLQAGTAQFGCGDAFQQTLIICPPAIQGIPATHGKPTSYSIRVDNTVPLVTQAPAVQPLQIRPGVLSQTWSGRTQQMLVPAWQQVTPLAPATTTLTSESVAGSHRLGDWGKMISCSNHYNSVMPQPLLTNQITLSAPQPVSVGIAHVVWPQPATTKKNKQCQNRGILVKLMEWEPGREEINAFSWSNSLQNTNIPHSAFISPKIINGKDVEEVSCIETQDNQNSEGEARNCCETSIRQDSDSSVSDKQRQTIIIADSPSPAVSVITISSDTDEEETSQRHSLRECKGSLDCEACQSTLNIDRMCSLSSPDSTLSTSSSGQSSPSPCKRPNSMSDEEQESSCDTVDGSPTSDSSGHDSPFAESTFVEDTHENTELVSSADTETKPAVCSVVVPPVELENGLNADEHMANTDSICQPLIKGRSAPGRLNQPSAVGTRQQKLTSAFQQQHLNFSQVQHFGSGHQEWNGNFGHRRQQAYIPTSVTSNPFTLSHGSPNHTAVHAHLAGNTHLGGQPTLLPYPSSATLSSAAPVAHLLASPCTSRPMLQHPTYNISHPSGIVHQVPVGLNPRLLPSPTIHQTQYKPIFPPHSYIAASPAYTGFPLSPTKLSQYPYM
Chain of UniProt P51813 (whole entry, looked up): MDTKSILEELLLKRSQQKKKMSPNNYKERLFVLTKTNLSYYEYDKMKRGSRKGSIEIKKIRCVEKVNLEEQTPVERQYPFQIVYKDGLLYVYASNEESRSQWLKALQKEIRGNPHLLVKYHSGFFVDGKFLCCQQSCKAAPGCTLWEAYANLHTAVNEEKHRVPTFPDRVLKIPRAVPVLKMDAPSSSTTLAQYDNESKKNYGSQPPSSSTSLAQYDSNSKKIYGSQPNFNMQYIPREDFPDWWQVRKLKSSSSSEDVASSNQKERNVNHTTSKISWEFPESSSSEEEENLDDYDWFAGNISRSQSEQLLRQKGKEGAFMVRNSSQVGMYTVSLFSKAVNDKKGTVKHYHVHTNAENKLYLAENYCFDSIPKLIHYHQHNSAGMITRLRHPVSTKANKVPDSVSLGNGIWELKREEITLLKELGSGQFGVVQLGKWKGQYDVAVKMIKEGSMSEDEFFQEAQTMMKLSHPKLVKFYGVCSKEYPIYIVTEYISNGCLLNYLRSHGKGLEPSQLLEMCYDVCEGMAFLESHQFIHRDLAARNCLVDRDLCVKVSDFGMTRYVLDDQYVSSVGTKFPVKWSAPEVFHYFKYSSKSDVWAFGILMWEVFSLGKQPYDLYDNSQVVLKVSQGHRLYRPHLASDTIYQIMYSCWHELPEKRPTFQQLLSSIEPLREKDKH
Chain of UniProt Q96RR4 (whole entry, looked up): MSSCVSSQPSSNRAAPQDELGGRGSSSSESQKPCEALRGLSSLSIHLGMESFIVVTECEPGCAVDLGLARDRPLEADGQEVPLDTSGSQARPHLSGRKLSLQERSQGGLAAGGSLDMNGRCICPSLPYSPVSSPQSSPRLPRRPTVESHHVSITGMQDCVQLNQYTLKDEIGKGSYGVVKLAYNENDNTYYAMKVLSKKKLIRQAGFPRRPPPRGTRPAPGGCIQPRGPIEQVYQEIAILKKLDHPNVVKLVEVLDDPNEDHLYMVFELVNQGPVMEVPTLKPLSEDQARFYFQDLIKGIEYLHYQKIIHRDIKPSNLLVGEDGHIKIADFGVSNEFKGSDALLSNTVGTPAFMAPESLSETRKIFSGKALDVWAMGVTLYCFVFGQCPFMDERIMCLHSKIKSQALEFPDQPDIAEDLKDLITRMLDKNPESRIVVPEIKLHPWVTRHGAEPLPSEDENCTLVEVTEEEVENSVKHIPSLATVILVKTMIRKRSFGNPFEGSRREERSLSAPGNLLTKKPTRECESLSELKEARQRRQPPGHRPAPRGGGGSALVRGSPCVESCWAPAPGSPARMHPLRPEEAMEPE
Chain of UniProt P49760 (whole entry, looked up): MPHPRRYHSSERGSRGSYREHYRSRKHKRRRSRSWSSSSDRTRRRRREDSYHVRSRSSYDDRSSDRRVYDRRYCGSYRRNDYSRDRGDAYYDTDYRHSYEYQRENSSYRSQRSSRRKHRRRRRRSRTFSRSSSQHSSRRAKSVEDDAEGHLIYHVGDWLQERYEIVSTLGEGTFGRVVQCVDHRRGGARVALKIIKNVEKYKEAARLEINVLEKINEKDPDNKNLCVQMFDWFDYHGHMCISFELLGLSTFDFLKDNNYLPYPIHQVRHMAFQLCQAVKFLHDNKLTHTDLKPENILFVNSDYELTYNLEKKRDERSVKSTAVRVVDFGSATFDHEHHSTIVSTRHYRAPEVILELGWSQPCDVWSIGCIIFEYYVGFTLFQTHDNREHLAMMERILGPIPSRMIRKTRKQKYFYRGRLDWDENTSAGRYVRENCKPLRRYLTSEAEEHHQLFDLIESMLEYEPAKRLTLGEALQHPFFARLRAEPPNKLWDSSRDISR
Chain of UniProt P49674 (whole entry, looked up): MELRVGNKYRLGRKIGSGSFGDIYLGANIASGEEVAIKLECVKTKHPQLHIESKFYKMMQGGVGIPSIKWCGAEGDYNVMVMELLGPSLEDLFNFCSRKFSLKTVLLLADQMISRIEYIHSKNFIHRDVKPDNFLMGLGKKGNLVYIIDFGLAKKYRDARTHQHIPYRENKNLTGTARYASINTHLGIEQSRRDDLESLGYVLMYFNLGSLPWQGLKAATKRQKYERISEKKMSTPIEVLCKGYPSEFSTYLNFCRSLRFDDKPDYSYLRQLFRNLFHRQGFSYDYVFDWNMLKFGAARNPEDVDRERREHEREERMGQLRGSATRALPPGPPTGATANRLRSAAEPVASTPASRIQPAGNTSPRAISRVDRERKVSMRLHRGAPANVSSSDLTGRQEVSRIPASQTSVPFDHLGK

Block 1 — read-out: cell-free assay; method: competition with immobilised ligand; concentration: 0.1 µM
Structure (SMILES): CS(=O)(=O)N1CCCC(NC(=O)[C@H](CCC2CCCCC2)NC(=O)c2ccc(CNc3ncnc4c3nnn4-c3ccccc3)cc2)C1 (stereo partly shown)
target	remaining binding [%]
Calcium/calmodulin-dependent protein kinase kinase 2 (CAMKK2, Homo sapiens, UniProt Q96RR4)	78
Cyclin-dependent kinase 18 (CDK18, Homo sapiens, UniProt Q07002)	100
Cytoplasmic tyrosine-protein kinase BMX (BMX, Homo sapiens, UniProt P51813)	79
Casein kinase I isoform epsilon (CSNK1E, Homo sapiens, UniProt P49674)	100
Dual specificity protein kinase CLK2 (CLK2, Homo sapiens, UniProt P49760)	100
Mitogen-activated protein kinase kinase kinase 11 (MAP3K11, Homo sapiens, UniProt Q16584)	92
Homeodomain-interacting protein kinase 3 (HIPK3, Homo sapiens, UniProt Q9H422)	100
Rho-associated protein kinase 2 (ROCK2, Homo sapiens, UniProt O75116)	100

Block 2 — method: protein-binding microarray; molecule type: double-stranded DNA, one strand shown; medium: in vitro; concentration: 0.8 µM; setting: whole 60-bp probe, no competitor; reading: higher = stronger binding; all sequences stand within: … GTCTTGATTCGCTTGACGCTGCTG
Target: Centromere-binding protein 1, full length, N-terminal tag (CBF1, Saccharomyces cerevisiae, UniProt P17106, residues 1-351)
Chain of UniProt P17106 (whole entry, looked up): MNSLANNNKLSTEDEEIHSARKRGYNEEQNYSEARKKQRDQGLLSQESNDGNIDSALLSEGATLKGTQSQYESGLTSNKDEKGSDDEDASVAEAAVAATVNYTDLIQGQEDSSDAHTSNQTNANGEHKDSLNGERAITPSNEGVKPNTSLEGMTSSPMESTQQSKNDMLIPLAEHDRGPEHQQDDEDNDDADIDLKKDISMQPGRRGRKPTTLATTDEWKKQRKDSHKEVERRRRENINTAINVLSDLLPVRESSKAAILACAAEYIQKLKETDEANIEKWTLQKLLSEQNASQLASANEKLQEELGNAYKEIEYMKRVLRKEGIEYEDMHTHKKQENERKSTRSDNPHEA
Strand	fluorescence intensity
CTACCTTCGAGACTTCTGATGATGACATTTCCATTC	524 a.u.
TGTACGAAGCTATGTCACGTGAATATAGTAGTTAGG	15900 a.u.
CTAATCCAAGAAACCCGCGTGAAAAAAAATGGCTTC	551 a.u.
GAAGTTTTTTTTTTCATCACCATCGCATCGCAATAG	559 a.u.
CTATTGTTGTTATCGCTGATGGCGCTCCTCCATTTC	541 a.u.
CTAATTGCACTTTCCCATGCGCACTACCCATCTTTC	509 a.u.
CTACTATACATGGGGTACGTGCCTGTATTTTGATTC	613 a.u.
GAAAGTAATACCTGTGCCATGTGATAGCCATATTAG	2000 a.u.

Block 3 — read-out: enzyme activity; mode: inhibitor; concentration: 0.5 µM; baseline: control
Target: Cyclin-dependent kinase 7 (CDK7, Homo sapiens, UniProt P50613)
Chain of UniProt P50613 (whole entry, looked up): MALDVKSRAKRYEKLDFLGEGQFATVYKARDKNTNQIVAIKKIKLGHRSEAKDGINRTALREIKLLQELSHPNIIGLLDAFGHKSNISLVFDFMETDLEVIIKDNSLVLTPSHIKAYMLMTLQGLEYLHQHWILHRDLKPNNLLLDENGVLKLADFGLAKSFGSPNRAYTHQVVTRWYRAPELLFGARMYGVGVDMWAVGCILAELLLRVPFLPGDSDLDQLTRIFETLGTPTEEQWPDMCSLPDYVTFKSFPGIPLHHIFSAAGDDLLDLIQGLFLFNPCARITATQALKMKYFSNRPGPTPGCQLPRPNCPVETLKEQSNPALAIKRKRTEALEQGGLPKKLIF
SMILES	remaining activity [%]
Cc1ccc(Nc2nccc(N(C)c3ccc4c(C)n(C)nc4c3)n2)cc1S(N)(=O)=O	103
OCC(O)CCON=C1C(c2c(O)[nH]c3ccccc23)=Nc2ccccc21 (stereo not shown)	77.9
Nc1ccc2ncnc(NCCc3ccc(Oc4ccccc4)cc3)c2c1	99.3
COc1cc2ncnc(Nc3ccc(Oc4ccccc4)cc3)c2cc1OC	102
O=c1c2ccccc2[nH]c(=S)n1CCN1CCC(=C(c2ccc(F)cc2)c2ccc(F)cc2)CC1	99.6
CO[C@H]1C[C@@H]2CC[C@@H](C)[C@@](O)(O2)C(=O)C(=O)N2CCCC[C@H]2C(=O)O[C@H]([C@H](C)C[C@@H]2CC[C@@H](O)[C@H](OC)C2)CC(=O)[C@H](C)/C=C(\C)[C@@H](O)[C@@H](OC)C(=O)[C@H](C)C[C@H](C)/C=C/C=C/C=C/1C	98.2
CC(C)[C@H](CO)Nc1nc(Nc2cc(N)cc(Cl)c2)c2ncn(C(C)C)c2n1	54.7
Cn1c2ccccc2c2c3c(c4c5ccccc5n(CCC#N)c4c21)CNC3=O	84.6
O=C1NC(=O)C(c2cn(CCCn3ccnc3)c3ccccc23)=C1Nc1ccccc1	96.3
O=C(O)c1ccc2c3c1cccc3c(=O)n1c3ccccc3nc21	92.1
CNC(=O)c1cc(Oc2ccc(NC(=O)Nc3ccc(Cl)c(C(F)(F)F)c3)cc2)ccn1	102
O=C(Nc1cccc(Nc2cc(Nc3cccc(C(F)(F)F)c3)ncn2)c1)C1CC1	97.6
Cc1cccc(-c2[nH]c(C(C)(C)C)nc2-c2ccc3c(c2)OCO3)n1	106
N#CC(C#N)=C(N)/C(C#N)=C/c1ccc(O)cc1	91.2

Single results of other studies
Molecule	target	assay	test system	conditions	scale	endpoint	result
PhoQ, residues 284 288 289 292 302 303 GANMMA	PhoP, residues 12 14 15 18 19 AQALL (Escherichia coli, UniProt P23836)	Sort-seq, measured: YFP reporter	E. coli	PhoQ-PhoP variant library, together with: 10 µM Mg2+	baseline: high Mg2+ state, higher = stronger signaling	fold induction	4.15

For quick reference, copied from above (block 3):
SMILES	remaining activity [%]
CO[C@H]1C[C@@H]2CC[C@@H](C)[C@@](O)(O2)C(=O)C(=O)N2CCCC[C@H]2C(=O)O[C@H]([C@H](C)C[C@@H]2CC[C@@H](O)[C@H](OC)C2)CC(=O)[C@H](C)/C=C(\C)[C@@H](O)[C@@H](OC)C(=O)[C@H](C)C[C@H](C)/C=C/C=C/C=C/1C	98.2
CC(C)[C@H](CO)Nc1nc(Nc2cc(N)cc(Cl)c2)c2ncn(C(C)C)c2n1	54.7
Cn1c2ccccc2c2c3c(c4c5ccccc5n(CCC#N)c4c21)CNC3=O	84.6
O=C1NC(=O)C(c2cn(CCCn3ccnc3)c3ccccc23)=C1Nc1ccccc1	96.3
O=C(O)c1ccc2c3c1cccc3c(=O)n1c3ccccc3nc21	92.1
